# Experimental data from different studies.
# Every numbered part comes from another study and shows a few of its results, in no order. Values joined by “and” are separate records of one study, mostly repeats; a detail may differ.
# Sequence of UniProt Q8TDR2 (whole entry, looked up): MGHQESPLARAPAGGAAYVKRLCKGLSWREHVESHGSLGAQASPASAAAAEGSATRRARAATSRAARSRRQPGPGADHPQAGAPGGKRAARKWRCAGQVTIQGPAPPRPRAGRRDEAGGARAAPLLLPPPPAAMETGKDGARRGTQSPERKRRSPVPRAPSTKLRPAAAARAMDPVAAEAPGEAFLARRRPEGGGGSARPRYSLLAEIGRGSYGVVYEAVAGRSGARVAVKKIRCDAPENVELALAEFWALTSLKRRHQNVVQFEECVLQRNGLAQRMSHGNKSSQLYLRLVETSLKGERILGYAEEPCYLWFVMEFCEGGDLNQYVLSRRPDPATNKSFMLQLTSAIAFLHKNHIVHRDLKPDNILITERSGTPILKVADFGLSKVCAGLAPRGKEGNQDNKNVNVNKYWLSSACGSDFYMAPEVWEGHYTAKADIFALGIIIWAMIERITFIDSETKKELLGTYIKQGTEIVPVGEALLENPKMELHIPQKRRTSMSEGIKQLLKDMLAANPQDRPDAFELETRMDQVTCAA
# Sequence of UniProt Q9H422 (whole entry, looked up): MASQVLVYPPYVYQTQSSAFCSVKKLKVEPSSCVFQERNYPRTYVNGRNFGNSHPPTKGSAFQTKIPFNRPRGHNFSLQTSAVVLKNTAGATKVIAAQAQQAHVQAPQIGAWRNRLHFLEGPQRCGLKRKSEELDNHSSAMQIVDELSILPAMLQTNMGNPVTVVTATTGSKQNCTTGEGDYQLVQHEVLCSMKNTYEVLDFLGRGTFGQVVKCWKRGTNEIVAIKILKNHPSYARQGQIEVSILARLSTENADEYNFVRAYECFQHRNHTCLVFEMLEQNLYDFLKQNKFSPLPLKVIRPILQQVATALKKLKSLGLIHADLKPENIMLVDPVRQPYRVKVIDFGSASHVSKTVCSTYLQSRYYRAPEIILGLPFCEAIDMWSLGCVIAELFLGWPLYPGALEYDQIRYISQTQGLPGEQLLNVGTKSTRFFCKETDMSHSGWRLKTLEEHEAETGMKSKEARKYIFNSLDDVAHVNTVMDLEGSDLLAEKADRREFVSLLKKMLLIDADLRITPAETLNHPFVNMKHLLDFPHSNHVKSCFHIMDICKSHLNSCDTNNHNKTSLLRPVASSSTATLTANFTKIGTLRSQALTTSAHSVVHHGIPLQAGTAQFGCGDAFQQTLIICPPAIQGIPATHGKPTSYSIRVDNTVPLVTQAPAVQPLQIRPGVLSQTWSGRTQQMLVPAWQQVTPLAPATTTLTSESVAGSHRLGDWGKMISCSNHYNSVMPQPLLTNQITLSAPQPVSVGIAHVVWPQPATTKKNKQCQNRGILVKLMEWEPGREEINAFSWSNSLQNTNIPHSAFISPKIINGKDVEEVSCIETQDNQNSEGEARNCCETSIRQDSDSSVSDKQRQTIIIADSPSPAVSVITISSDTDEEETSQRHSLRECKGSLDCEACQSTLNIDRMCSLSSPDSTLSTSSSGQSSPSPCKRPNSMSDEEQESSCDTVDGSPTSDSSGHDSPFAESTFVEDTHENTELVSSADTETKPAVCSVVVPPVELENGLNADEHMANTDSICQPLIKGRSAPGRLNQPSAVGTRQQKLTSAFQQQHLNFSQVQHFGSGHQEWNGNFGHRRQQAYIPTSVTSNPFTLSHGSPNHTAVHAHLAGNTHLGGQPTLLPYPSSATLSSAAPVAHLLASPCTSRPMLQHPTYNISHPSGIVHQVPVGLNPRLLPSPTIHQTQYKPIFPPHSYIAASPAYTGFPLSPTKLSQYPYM
# Sequence of UniProt Q86UE8 (whole entry, looked up): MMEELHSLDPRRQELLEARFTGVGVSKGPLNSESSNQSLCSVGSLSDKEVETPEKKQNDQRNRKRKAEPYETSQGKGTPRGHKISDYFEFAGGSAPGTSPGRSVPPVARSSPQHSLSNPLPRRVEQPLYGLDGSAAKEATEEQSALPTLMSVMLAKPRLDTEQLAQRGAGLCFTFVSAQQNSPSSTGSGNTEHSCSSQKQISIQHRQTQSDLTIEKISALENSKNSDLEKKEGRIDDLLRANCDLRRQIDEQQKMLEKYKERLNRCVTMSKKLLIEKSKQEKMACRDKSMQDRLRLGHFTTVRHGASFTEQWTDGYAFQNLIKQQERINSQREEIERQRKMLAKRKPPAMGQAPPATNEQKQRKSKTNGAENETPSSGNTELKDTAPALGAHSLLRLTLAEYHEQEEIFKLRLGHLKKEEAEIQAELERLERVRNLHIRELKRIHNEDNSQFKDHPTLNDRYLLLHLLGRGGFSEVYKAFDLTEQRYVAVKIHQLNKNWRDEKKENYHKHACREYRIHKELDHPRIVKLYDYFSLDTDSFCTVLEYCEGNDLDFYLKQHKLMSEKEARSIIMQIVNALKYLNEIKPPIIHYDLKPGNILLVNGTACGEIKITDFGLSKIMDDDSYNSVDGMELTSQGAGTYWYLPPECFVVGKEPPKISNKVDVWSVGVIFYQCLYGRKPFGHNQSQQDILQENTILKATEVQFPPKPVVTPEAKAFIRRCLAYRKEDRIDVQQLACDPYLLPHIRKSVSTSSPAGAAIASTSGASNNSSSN
# Sequence of UniProt Q8TBX8 (whole entry, looked up): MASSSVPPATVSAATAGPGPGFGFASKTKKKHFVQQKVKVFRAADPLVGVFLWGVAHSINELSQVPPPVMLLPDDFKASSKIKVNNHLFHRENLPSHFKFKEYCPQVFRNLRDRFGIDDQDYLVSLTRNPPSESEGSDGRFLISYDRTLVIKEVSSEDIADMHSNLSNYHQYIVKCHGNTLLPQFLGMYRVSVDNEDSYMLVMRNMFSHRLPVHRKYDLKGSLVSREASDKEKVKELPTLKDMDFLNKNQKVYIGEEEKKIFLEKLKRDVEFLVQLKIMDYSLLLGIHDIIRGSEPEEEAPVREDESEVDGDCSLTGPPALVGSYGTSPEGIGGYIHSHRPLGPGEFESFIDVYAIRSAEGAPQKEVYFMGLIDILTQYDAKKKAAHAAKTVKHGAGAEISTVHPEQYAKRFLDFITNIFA
# Sequence of UniProt Q6ZN16 (whole entry, looked up): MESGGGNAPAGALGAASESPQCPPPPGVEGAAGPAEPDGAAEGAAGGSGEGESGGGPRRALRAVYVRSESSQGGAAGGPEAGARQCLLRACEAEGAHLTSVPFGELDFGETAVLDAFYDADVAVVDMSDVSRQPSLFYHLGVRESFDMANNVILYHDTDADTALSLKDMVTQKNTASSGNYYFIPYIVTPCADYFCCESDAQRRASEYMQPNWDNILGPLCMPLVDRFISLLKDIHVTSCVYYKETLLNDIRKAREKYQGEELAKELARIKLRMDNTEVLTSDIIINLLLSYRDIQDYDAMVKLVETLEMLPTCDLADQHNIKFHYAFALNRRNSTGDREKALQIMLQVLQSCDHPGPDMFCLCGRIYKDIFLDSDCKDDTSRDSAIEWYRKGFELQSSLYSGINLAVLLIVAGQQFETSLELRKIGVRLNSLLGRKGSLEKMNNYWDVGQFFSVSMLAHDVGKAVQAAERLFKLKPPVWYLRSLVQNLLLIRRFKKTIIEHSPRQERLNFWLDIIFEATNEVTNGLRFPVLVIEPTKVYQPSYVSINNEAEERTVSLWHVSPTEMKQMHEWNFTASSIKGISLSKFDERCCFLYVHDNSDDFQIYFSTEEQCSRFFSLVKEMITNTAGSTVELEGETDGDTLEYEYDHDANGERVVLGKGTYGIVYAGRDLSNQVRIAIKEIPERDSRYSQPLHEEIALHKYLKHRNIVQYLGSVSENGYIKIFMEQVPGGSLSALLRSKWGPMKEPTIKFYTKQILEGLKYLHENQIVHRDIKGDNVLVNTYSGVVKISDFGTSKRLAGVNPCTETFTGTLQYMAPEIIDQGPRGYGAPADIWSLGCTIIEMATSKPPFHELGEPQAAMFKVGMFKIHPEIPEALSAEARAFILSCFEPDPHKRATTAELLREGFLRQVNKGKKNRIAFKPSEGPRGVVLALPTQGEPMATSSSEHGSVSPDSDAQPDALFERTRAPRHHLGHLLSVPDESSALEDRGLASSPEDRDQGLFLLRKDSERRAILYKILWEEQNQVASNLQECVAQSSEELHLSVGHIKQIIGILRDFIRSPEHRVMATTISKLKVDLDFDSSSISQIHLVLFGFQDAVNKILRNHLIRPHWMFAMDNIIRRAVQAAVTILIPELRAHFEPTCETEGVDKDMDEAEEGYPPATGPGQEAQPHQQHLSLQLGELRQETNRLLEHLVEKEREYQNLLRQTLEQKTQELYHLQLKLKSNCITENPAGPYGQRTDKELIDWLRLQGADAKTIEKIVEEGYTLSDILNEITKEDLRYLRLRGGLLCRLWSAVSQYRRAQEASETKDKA

# Sample 1
# Target: Serine/threonine-protein kinase 33 (STK33, Homo sapiens, UniProt Q9BYT3)
# Sequence of UniProt Q9BYT3 (whole entry, looked up): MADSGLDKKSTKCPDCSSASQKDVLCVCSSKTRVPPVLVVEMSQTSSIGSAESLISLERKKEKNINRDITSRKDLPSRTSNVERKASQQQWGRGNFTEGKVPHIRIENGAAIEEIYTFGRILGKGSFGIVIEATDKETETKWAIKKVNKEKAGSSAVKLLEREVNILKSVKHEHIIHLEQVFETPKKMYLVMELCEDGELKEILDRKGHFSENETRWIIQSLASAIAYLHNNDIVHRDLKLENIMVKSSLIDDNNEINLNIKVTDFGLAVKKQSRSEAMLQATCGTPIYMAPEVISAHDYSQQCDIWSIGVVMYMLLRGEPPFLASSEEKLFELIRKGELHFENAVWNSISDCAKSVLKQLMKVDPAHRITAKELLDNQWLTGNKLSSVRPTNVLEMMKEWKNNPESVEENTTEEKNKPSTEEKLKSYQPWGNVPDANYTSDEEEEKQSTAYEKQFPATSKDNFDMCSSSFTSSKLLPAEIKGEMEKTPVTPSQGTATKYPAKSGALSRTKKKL
# Observed: enzyme activity
# Mode: inhibitor
# Technique: radiometric
# Concentration: 0.5 µM
Compound,remaining activity [%]
CN(C)c1ccc(C=C2C(=O)Nc3ccccc32)cc1,99.8
Nc1ncnc2n[nH]c(Nc3ccc(F)cc3)c12,94.3
Oc1ccc(-c2nc(-c3ccncc3)c(-c3ccc(F)cc3)[nH]2)cc1,103
COC(=O)[C@]1(O)C[C@@H]2O[C@@]1(C)n1c3ccccc3c3c4c(c5c6ccccc6n2c5c31)C(=O)NC4,12.5
COc1ccc(CNC(=O)Nc2ncc([N+](=O)[O-])s2)cc1,100
CNC(=O)c1cc(Oc2ccc(NC(=O)Nc3ccc(Cl)c(C(F)(F)F)c3)cc2)ccn1,83.9
O=C(Nc1cccc(Nc2cc(Nc3cccc(C(F)(F)F)c3)ncn2)c1)C1CC1,105
O=C1NC(=O)C(c2cn(CCCn3ccnc3)c3ccccc23)=C1Nc1ccccc1,82.9

# Sample 2
# Cell line: HEK-293T/ACE2
# Concentration: concentration not given
# Time: 16 (unit not given)
# Reference: vehicle
SMILES,viability
C#C[C@]1(O)CC[C@H]2[C@@H]3CCC4=C(CCC(=O)C4)[C@H]3CC[C@@]21C,103%
Cc1ccc(-c2cc(C(F)(F)F)nn2-c2ccc(S(N)(=O)=O)cc2)cc1,99.2%
CCN(C)C(=O)Oc1cccc([C@H](C)N(C)C)c1,102%
O=C(OCc1ccccc1)c1ccccc1,97.8%
COc1ccc(C(=O)c2ccccc2)c(O)c1,102%
CC(C)(C)NC(=O)[C@H]1CC[C@H]2[C@@H]3CC[C@H]4NC(=O)C=C[C@]4(C)[C@H]3CC[C@]12C,102%

# Sample 3
# SMILES: N#CC1(c2ccccn2)CCN(Cc2cc(C(=O)O)c(=O)n3ccccc23)CC1
# Observed: cell-free assay
# Technique: competition with immobilised ligand
# Concentration: 1 µM
target,remaining binding [%]
"ABL2 (Homo sapiens, UniProt P42684)",100
"TLK2 (Homo sapiens, UniProt Q86UE8)",98
"STK3 (Homo sapiens, UniProt Q13188)",98
"Tyrosine-protein kinase ABL1, phosphorylated (ABL1, Homo sapiens, UniProt P00519, M351T)",57
"CDK11B (Homo sapiens, UniProt P21127)",100
"PIP4K2C (Homo sapiens, UniProt Q8TBX8)",99
"MAP3K3 (Homo sapiens, UniProt Q99759)",77
"LATS2 (Homo sapiens, UniProt Q9NRM7)",95
"MAP3K15 (Homo sapiens, UniProt Q6ZN16)",100
"MAP2K5 (Homo sapiens, UniProt Q13163)",62
"PI4KB (Homo sapiens, UniProt Q9UBF8)",74
"HIPK3 (Homo sapiens, UniProt Q9H422)",84
"KIT (Homo sapiens, UniProt P10721)",100
"Tyrosine-protein kinase ABL1, non-phosphorylated (ABL1, Homo sapiens, UniProt P00519, T315I)",80
"STK35 (Homo sapiens, UniProt Q8TDR2)",94

# Further values, each from its own experiment
SMILES,organism,test,test system,conditions,measurement,result
CCCCCCCCCCCCCCCCOP(=O)([O-])OCC[N+](C)(C)C,Leishmania donovani,"parasite growth, imaging",THP-1,"40 nM, intracellular, amastigote",inhibition,9% and 6% and 4% and 10%

# Some of these lines once more (sample 3):
target,remaining binding [%]
"PIP4K2C (Homo sapiens, UniProt Q8TBX8)",99
"STK35 (Homo sapiens, UniProt Q8TDR2)",94
